# Experimental data collected from several papers.
# Parts stem from different laboratories: compare values within a part only. “And” joins repeats or separate records; there may be more than shown.
# UniProt Q16512, sequence (whole entry, looked up): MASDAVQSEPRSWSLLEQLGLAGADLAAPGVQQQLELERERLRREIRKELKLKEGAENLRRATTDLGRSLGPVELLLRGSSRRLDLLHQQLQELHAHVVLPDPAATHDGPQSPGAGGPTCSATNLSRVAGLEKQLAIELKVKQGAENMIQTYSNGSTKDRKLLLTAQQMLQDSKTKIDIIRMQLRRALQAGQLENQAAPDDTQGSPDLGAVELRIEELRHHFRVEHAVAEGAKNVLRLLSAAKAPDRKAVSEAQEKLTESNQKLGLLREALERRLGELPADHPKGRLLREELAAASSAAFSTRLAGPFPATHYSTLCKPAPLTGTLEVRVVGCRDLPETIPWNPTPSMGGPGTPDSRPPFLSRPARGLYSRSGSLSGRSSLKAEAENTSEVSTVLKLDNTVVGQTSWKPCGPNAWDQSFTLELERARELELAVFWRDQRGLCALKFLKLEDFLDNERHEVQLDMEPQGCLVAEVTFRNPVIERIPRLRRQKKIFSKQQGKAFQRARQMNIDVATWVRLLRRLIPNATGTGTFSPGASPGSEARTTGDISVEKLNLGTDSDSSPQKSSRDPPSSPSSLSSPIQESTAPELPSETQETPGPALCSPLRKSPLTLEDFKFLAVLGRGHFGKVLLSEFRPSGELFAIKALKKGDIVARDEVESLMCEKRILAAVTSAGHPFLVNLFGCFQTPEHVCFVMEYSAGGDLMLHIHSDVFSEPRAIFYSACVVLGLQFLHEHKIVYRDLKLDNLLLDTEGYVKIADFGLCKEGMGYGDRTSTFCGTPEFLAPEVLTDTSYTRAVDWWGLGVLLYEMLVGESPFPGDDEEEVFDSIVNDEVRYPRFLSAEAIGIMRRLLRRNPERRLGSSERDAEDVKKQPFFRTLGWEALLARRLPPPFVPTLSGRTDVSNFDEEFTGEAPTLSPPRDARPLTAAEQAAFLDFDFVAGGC
# UniProt Q15418, sequence (whole entry, looked up): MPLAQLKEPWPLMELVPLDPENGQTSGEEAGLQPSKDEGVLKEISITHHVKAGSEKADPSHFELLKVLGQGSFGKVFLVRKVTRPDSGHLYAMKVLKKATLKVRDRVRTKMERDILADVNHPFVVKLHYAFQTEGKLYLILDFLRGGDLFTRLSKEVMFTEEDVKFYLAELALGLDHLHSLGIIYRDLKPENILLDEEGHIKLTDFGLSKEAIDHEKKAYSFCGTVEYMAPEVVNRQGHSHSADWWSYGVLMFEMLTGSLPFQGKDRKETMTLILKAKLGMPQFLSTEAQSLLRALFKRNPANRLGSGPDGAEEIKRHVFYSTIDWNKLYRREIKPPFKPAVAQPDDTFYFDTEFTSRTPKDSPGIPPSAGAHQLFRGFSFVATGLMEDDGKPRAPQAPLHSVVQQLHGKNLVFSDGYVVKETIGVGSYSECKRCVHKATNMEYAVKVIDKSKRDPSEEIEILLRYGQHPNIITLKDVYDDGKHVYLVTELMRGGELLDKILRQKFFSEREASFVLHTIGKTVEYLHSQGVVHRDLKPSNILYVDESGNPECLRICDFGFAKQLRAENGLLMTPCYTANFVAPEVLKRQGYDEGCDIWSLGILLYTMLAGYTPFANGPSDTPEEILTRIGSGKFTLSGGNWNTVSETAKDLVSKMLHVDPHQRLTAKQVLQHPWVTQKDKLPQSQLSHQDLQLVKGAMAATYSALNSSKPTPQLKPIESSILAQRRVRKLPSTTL
# UniProt Q9UPZ9, sequence (whole entry, looked up): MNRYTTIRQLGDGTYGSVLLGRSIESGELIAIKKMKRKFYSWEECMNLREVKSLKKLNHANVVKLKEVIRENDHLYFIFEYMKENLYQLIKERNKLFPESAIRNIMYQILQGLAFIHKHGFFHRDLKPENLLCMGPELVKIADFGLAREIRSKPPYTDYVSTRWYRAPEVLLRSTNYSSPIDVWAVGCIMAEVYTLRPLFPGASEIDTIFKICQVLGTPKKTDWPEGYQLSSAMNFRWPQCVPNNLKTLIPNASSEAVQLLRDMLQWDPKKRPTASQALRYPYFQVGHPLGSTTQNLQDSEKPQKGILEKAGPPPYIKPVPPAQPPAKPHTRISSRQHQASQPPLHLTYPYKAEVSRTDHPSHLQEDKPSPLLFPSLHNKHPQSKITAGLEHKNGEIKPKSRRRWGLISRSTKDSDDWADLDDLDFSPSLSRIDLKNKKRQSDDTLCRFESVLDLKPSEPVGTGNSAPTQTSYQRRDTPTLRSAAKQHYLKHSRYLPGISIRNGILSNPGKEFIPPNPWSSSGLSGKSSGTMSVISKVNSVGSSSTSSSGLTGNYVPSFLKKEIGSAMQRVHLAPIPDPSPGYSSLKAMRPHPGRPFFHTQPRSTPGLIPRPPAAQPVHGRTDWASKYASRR
# UniProt Q00535, sequence (whole entry, looked up): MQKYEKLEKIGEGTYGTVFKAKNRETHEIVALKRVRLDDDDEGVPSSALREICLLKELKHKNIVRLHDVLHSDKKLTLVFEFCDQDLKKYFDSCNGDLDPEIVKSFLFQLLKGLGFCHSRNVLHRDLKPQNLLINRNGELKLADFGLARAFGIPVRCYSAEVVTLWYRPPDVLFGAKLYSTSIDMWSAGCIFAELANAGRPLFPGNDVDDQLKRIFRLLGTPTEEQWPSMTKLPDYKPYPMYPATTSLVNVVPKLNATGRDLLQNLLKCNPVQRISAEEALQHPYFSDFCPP

# Sample 1
# Cell line: mouse MPNST tumor cells
# Technique: high-content nuclear imaging
# Item: cell number
# Concentration: 10 µM
# Time: 12 h
# Notes: mean of 2 replicates
# Baseline: plate mean
# Reading: higher = more cells
SMILES,nuclei count
COc1cc2nc(-c3cc(F)ccc3O)nc(N[C@@H]3CNC[C@H]3C(C)(C)O)c2cc1OC,-5.41 z-score
O=C(NC12CC3CC(CC(C3)C1)C2)c1cnc2ccccc2n1,1.2 z-score
CC(C)[N+](C)(CCOC(=O)C1c2ccccc2Oc2ccccc21)C(C)C,1.14 z-score
CCC(C)C1OC2(CCC1C)CC1CC(CC=C(C)C(OC3CC(OC)C(OC4CC(OC)C(O)C(C)O4)C(C)O3)C(C)C=CC=C3COC4C(O)C(C)=CC(C(=O)O1)C34O)O2 (stereo not shown),-5.58 z-score
Cc1cc(NC(=O)Nc2ccc(F)c(F)c2)n(-c2ccccc2)n1,2.52 z-score
O=C(NCc1ccc(F)cc1)N1CCN2C(=O)OC(c3ccccc3)(c3ccccc3)C2C1 (stereo not shown),2.31 z-score
COc1cccc(N(C)C(=S)Oc2ccc3c(c2)CCCC3)n1,1.02 z-score
CN(C)CCc1c[nH]c2ccc(C[C@H]3COC(=O)N3)cc12,1.41 z-score and -0.2 z-score
O=C(Oc1nsnc1N1CCCCC1)N1CCCCC1,0.728 z-score
CC[C@@H](C)c1ccc(NC(=O)Cn2cnc3c2c(=O)n(C)c(=O)n3C)cc1 (racemic),-0.0377 z-score
O=C1OC(OC(=O)c2cccnc2Nc2cccc(C(F)(F)F)c2)c2ccccc21 (stereo not shown),0.507 z-score

# Sample 2
# SMILES: CC#CC(=O)N1CCC[C@H]1c1nc(-c2ccc(C(=O)Nc3ccccn3)cc2)c2c(N)nccn12
# Read-out: enzyme activity
# Mode: inhibitor
# Concentration: 1 µM
target,inhibition [%]
"PIK3CA (Homo sapiens, UniProt P42336, H1047L)",20
"STK38L (Homo sapiens, UniProt Q9Y2H1)",0
"CILK1 (Homo sapiens, UniProt Q9UPZ9)",5
"Tyrosine-protein kinase ABL1, phosphorylated (ABL1, Homo sapiens, UniProt P00519, M351T)",0
"FLT3 (Homo sapiens, UniProt P36888, D835Y)",0
"EPHA7 (Homo sapiens, UniProt Q15375)",8
"KIT (Homo sapiens, UniProt P10721)",26
"MAP4K5 (Homo sapiens, UniProt Q9Y4K4)",7
"FLT3 (Homo sapiens, UniProt P36888, D835H)",1
"PKN1 (Homo sapiens, UniProt Q16512)",3
"LRRK2 (Homo sapiens, UniProt Q5S007)",0
"PIK3CD (Homo sapiens, UniProt O00329)",12

# Sample 3
# Target: Proto-oncogene tyrosine-protein kinase ROS (ROS1, Homo sapiens, UniProt P08922)
# UniProt P08922, sequence (whole entry, looked up): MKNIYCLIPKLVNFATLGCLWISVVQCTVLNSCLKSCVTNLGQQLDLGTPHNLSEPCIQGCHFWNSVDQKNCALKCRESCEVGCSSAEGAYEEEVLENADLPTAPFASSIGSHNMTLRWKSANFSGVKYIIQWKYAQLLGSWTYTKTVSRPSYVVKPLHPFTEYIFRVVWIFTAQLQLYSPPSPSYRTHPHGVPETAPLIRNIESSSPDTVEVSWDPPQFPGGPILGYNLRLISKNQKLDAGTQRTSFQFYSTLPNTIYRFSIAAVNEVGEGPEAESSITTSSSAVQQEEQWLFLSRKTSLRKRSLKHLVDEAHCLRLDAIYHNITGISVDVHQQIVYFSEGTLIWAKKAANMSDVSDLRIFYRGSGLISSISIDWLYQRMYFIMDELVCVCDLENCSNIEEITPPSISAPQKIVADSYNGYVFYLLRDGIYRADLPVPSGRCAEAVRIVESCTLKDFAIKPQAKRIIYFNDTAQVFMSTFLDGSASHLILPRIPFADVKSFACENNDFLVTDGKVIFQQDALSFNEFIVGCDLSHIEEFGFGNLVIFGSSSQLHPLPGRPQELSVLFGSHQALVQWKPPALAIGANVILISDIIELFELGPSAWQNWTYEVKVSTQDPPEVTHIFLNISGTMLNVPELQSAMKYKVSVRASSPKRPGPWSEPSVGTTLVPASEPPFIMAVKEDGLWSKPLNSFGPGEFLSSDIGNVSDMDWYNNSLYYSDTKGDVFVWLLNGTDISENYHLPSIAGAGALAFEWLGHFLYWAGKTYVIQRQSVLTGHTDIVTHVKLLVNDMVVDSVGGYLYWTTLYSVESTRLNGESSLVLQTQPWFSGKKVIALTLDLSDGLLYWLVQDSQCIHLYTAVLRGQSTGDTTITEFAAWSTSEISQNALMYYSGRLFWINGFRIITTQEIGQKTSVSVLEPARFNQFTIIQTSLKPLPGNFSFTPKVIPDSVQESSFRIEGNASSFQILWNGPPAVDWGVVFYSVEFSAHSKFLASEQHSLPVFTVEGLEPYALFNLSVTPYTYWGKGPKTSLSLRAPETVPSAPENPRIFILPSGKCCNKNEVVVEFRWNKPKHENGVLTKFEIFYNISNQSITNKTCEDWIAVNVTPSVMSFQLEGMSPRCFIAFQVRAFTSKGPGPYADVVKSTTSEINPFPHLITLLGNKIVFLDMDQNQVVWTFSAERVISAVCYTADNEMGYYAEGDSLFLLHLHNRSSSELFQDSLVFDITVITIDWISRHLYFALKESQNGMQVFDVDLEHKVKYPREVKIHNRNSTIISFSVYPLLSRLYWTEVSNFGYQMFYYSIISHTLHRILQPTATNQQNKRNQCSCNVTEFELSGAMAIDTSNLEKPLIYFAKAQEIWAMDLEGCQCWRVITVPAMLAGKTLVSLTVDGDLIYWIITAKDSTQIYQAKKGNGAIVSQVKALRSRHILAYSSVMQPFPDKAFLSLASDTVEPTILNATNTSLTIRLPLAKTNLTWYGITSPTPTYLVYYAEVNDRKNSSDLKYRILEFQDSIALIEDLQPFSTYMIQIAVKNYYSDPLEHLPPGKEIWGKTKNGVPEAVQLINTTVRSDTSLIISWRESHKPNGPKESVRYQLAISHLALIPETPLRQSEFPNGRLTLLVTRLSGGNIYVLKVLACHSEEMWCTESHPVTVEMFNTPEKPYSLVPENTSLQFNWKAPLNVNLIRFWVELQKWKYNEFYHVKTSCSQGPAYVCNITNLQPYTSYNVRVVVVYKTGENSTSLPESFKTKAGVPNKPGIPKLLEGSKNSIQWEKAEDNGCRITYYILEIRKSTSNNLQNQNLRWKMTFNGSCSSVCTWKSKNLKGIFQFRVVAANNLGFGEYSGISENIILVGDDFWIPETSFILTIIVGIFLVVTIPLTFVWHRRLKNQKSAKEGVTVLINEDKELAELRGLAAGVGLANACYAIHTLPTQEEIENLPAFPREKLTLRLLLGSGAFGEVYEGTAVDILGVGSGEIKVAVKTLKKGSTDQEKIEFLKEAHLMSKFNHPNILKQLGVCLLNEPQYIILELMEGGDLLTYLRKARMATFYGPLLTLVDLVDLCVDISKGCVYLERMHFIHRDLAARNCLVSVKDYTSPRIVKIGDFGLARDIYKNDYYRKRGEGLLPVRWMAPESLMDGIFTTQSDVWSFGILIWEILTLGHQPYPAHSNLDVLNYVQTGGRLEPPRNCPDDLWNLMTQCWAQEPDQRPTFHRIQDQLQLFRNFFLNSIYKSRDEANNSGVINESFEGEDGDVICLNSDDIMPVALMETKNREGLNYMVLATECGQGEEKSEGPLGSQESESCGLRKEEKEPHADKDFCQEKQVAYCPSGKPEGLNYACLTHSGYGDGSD
# Read-out: enzyme activity
# Mode: inhibitor
# Concentration: 0.5 µM
# Baseline: control
SMILES,remaining activity
CCN(CC)CCNC(=O)c1c(C)[nH]c(/C=C2\C(=O)Nc3ccc(Cl)cc32)c1C,43.9%
C[C@@H]1CCN(C(=O)CC#N)C[C@@H]1N(C)c1ncnc2[nH]ccc12,94.1%
COc1cc2ncnc(Nc3ccc(O)c(Br)c3)c2cc1OC,65.7%
Cc1cc2ncc(-c3ccccc3)nc2cc1C,100%
CN(C)C[C@H]1CCn2c(c(C3=C(c4cn(C)c5ccccc45)C(=O)NC3=O)c3ccccc32)C1,87.1%
O=C(NC(NC(=S)Nc1ccc(F)c([N+](=O)[O-])c1)C(Cl)(Cl)Cl)C(c1ccccc1)c1ccccc1 (stereo not shown),99.5%
O=C1C(Cl)=C(N2C(=O)CCC2=O)C(=O)c2ccccc21,95.8%
N#Cc1c(NC(=O)c2cccc3ccccc23)sc2c1CCCC2,96.8%
Cc1cn(-c2cc(NC(=O)c3ccc(C)c(Nc4nccc(-c5cccnc5)n4)c3)cc(C(F)(F)F)c2)cn1,99.4%
c1ccc(-c2[nH]ncc2-c2ccnc3ccccc23)nc1,102%
CCN(CC)CCNC(=O)c1c(C)[nH]c(/C=C2\C(=O)Nc3ccc(F)cc32)c1C,71.6%
COc1cc2ncnc(Nc3cccc(Cl)c3)c2cc1OC,91.2%
c1ccc(-c2cnc(Nc3ccc(OCCN4CCCC4)cc3)s2)cc1,96.9%
Cn1nc2c3c(cccc31)C(=O)c1ccccc1-2,104%
Cc1nc2cc3nc(-c4cccs4)cnc3cc2n1C,97.9%
COc1cc2c(cc1OC)-c1[nH]nc(Nc3cccc(F)c3)c1C2,97.5%
Nc1cccc(-c2cc3c(Oc4cccc(O)c4)ncnc3[nH]2)c1,39.7%
CCN(CC)C(=O)c1ccc(Nc2nc(OCC3CCCCC3)c3[nH]cnc3n2)cc1,69.9%
N#C/C(=C\c1ccc(O)c(O)c1)C(=O)NCc1ccccc1,101%
O=C1c2ccccc2-c2n[nH]c3cccc1c23,76%
O=C(Nc1cccc(Nc2nccc(Nc3cccc(C(F)(F)F)c3)n2)c1)C1CC1,65.5%
O=c1cc(-c2cccc3c2Sc2ccccc2S3)oc(N2CCOCC2)c1,106%
CN([C@@H](Cc1ccc(OS(=O)(=O)c2cccc3cnccc23)cc1)C(=O)N1CCN(c2ccccc2)CC1)S(=O)(=O)c1cccc2cnccc12,96.5%
CCOc1nc(NC(=O)Cc2cc(OC)ccc2OC)cc(N)c1C#N,97.4%
Ic1cccc(CSc2nnc(-c3ccncc3)o2)c1,99.3%

# Sample 4
# Compound: Cc1c(C(=O)O)cc(-c2ccc(C3CCNCC3)cc2)c2ccc(-c3ccc(C(F)(F)F)cc3)cc12
# Technique: competition with immobilised ligand
# Concentration: 1 µM
target,read-out,remaining binding [%]
"Ribosomal protein S6 kinase alpha-1, N-terminal kinase domain (RPS6KA1, Homo sapiens, UniProt Q15418)",binding,100
"MAP3K6 (Homo sapiens, UniProt O95382)",binding,100
"EGFR (Homo sapiens, UniProt P00533, G719S)",cell-free assay,94
"CAMK2A (Homo sapiens, UniProt Q9UQM7)",cell-free assay,100
"Tyrosine-protein kinase JAK3, JH1 (JAK3, Homo sapiens, UniProt P52333)",binding,100
"DDR1 (Homo sapiens, UniProt Q08345)",cell-free assay,100
"NEK4 (Homo sapiens, UniProt P51957)",binding,100
"TESK1 (Homo sapiens, UniProt Q15569)",binding,93
"Ribosomal protein S6 kinase alpha-3, N-terminal kinase domain (RPS6KA3, Homo sapiens, UniProt P51812)",binding,100
"PKN1 (Homo sapiens, UniProt Q16512)",binding,100
"Ribosomal protein S6 kinase alpha-1, C-terminal kinase domain (RPS6KA1, Homo sapiens, UniProt Q15418)",binding,100
"BUB1 (Homo sapiens, UniProt O43683)",binding,100
"BMX (Homo sapiens, UniProt P51813)",cell-free assay,100
"CSNK1A1 (Homo sapiens, UniProt P48729)",cell-free assay,81
"CDK5 (Homo sapiens, UniProt Q00535)",binding,100
"SRMS (Homo sapiens, UniProt Q9H3Y6)",cell-free assay,100
"PRKCD (Homo sapiens, UniProt Q05655)",cell-free assay,100
"EPHA5 (Homo sapiens, UniProt P54756)",cell-free assay,100
"CDK2 (Homo sapiens, UniProt P24941)",binding,100
"CILK1 (Homo sapiens, UniProt Q9UPZ9)",binding,100
"MAP3K12 (Homo sapiens, UniProt Q12852)",binding,100
"MAPK11 (Homo sapiens, UniProt Q15759)",binding,100
"MATK (Homo sapiens, UniProt P42679)",binding,100
"MAPK12 (Homo sapiens, UniProt P53778)",binding,85
"HIPK2 (Homo sapiens, UniProt Q9H2X6)",binding,100
